Measurements gathered from unrelated publications.
Every numbered part comes from another study and shows a few of its results, in no order.
Chain of UniProt P31391 (whole entry, looked up): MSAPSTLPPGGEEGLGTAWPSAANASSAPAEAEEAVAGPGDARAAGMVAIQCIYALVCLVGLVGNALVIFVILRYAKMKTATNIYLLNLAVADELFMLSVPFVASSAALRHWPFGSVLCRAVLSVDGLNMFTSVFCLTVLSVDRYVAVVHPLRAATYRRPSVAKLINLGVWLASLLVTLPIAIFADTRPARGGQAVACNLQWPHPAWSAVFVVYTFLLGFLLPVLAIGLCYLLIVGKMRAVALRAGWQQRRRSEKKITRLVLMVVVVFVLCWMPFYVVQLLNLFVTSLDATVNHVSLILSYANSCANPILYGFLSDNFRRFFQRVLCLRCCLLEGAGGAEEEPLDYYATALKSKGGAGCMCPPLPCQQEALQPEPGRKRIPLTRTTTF
Chain of UniProt P29371 (whole entry, looked up): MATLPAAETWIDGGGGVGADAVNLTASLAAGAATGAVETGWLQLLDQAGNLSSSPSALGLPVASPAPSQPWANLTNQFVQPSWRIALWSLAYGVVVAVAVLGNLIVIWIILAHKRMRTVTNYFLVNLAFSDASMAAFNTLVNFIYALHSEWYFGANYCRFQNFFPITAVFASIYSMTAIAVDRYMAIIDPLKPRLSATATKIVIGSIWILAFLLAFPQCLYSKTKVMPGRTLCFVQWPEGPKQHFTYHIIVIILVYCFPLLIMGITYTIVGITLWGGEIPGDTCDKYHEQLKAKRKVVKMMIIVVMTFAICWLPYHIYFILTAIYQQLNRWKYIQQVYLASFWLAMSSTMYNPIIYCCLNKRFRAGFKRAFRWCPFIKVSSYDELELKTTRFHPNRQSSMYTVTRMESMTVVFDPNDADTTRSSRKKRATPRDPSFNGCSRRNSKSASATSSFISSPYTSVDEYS
Chain of UniProt Q9HC97 (whole entry, looked up): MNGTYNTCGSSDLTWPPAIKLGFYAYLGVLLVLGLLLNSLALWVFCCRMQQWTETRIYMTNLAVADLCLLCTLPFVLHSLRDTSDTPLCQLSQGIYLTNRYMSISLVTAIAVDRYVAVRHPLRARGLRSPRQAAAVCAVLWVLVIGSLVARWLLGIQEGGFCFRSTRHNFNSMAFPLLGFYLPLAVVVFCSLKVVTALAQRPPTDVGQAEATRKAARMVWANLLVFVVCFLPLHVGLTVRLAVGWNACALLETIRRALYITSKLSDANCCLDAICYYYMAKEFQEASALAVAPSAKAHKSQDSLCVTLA
Chain of UniProt Q96RJ0 (whole entry, looked up): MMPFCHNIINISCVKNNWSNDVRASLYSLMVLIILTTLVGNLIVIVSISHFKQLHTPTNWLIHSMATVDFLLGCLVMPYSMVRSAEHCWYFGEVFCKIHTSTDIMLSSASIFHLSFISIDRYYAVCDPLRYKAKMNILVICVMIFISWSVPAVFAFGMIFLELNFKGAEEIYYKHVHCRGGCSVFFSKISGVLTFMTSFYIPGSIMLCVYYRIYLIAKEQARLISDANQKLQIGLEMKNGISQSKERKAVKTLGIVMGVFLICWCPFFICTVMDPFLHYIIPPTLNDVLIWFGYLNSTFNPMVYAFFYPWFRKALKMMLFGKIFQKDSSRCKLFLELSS
Chain of UniProt P41587 (whole entry, looked up): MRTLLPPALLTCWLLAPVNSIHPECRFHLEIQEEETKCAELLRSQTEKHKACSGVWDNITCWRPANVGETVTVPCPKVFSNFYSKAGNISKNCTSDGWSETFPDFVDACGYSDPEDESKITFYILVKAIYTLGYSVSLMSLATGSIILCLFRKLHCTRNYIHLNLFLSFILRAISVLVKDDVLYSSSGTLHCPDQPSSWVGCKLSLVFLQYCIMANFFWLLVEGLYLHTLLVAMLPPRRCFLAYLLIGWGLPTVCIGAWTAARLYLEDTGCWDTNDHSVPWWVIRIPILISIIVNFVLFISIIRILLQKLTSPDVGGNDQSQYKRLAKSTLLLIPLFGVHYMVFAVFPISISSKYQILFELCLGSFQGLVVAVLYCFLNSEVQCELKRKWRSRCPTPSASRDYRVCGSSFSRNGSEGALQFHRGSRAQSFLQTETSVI
Chain of UniProt P47900 (whole entry, looked up): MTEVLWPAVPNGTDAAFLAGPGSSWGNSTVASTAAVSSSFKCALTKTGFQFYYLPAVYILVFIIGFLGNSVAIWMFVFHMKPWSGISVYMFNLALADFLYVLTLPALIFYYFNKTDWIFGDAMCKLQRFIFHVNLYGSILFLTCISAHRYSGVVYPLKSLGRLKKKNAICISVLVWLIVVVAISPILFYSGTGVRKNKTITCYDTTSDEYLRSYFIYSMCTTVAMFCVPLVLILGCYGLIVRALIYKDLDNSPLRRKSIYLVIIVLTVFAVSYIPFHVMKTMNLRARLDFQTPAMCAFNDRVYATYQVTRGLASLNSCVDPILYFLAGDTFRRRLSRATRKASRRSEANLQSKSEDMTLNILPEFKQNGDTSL
Chain of UniProt P47898 (whole entry, looked up): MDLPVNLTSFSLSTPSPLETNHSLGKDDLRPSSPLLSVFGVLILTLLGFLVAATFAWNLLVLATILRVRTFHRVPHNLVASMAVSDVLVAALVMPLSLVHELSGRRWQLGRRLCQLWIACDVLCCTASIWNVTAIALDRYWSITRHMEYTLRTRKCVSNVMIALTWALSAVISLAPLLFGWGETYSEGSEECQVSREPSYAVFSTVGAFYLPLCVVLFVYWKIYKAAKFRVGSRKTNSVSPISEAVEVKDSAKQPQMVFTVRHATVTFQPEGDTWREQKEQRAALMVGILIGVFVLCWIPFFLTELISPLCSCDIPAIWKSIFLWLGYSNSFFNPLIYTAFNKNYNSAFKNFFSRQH
Chain of UniProt P08908 (whole entry, looked up): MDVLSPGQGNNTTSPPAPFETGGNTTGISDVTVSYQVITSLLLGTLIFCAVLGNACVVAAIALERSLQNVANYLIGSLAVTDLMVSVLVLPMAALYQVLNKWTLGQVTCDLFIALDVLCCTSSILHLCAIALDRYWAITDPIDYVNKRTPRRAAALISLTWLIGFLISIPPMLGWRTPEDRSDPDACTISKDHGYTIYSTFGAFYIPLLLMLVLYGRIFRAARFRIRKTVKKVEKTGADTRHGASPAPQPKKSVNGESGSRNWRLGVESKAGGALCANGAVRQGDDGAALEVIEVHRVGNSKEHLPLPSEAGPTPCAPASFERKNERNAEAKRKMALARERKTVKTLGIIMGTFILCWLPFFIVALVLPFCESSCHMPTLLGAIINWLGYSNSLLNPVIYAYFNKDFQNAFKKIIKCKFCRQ

Sample 1
Target: Tyrosine-protein kinase ZAP-70 (ZAP70, Homo sapiens, UniProt P43403)
Chain of UniProt P43403 (whole entry, looked up): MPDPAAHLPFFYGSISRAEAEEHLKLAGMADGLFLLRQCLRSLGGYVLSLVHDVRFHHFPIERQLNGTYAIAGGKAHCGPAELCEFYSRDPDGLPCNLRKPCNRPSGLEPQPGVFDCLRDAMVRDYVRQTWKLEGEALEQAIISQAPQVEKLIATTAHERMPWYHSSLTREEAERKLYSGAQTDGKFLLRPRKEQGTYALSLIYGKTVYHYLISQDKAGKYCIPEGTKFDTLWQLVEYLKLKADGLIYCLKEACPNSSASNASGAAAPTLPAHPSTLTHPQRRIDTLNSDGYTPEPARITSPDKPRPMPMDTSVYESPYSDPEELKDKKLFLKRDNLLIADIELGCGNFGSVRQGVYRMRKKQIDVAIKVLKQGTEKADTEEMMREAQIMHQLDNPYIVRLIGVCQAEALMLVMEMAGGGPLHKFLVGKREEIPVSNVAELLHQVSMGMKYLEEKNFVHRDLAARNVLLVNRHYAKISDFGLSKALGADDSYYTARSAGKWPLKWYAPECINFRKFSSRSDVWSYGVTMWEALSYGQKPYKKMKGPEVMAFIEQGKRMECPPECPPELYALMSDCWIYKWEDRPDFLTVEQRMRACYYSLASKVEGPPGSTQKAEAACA
Effect on: enzyme activity
Action: inhibitor
Tested at: 0.5 µM
Baseline: control
SMILES	remaining activity [%]
COc1ccc(C(=O)Nc2sc3c(c2C(N)=O)CCCC3)cc1OC	95.6
O=C1NC(=O)C(c2cn(CCCO)c3ncccc23)=C1c1cnccn1	87.8
OCC(O)CCON=C1C(c2c(O)[nH]c3ccccc23)=Nc2ccccc21 (stereo not shown)	97.8
Nc1[nH]nc2nc3ccccc3nc12	102
Oc1ccc(-c2nc(-c3ccncc3)c(-c3ccc(F)cc3)[nH]2)cc1	100
Nc1ncnc2n[nH]c(Nc3ccc(F)cc3)c12	95.2
CO[C@H]1C[C@@H]2CC[C@@H](C)[C@@](O)(O2)C(=O)C(=O)N2CCCC[C@H]2C(=O)O[C@H]([C@H](C)C[C@@H]2CC[C@@H](O)[C@H](OC)C2)CC(=O)[C@H](C)/C=C(\C)[C@@H](O)[C@@H](OC)C(=O)[C@H](C)C[C@H](C)/C=C/C=C/C=C/1C	99.2
O=C(Nc1cccc(Nc2cc(Nc3cccc(C(F)(F)F)c3)ncn2)c1)C1CC1	93
NCCNc1ncc(C(N)=O)c(Nc2cccc(C(F)(F)F)c2)n1	95.3
CCOC(=O)c1c(C)[nH]c(/C=C2\C(=O)Nc3ccccc32)c1C	98.8
COc1cc2ncnc(Nc3ccc(Oc4ccccc4)cc3)c2cc1OC	97
Nc1ccc2ncnc(NCCc3ccc(Oc4ccccc4)cc3)c2c1	93.2
COc1ccc(OC)c2c(=S)c3ccccc3[nH]c12	100
O=C(O)c1ccc2c3c1cccc3c(=O)n1c3ccccc3nc21	119
CN(C)c1ccc(C=C2C(=O)Nc3ccccc32)cc1	89.9

Sample 2
Structure (SMILES): N=C(N)NC(=O)c1cnn(-c2cccc3ncccc23)c1C1CC1
Effect on: β-arrestin recruitment
Action: agonist
Technique: PRESTO-Tango
Tested at: 10 µM
Baseline: untreated
target	fold over basal
5-hydroxytryptamine receptor 1A (HTR1A, Homo sapiens, UniProt P08908)	1.21
G-protein coupled receptor 35 (GPR35, Homo sapiens, UniProt Q9HC97)	1.31
P2Y purinoceptor 1 (P2RY1, Homo sapiens, UniProt P47900)	0.67
Vasoactive intestinal polypeptide receptor 2 (VIPR2, Homo sapiens, UniProt P41587)	0.67 fold
Neuromedin-K receptor (TACR3, Homo sapiens, UniProt P29371)	1.27 fold
Somatostatin receptor type 4 (SSTR4, Homo sapiens, UniProt P31391)	1.14 fold
Trace amine-associated receptor 1 (TAAR1, Homo sapiens, UniProt Q96RJ0)	1.08 fold

Sample 3
Target: Diamine acetyltransferase 1 (Homo sapiens, UniProt P21673)
Action: inhibitor
Tested at: 10 µM
Baseline: control
Target sequence (P21673 1-171): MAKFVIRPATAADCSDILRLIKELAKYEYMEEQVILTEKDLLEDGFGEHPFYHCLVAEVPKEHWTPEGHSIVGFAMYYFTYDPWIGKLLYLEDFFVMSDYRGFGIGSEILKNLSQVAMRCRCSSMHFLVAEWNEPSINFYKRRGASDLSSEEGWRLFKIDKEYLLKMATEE
SMILES	remaining activity [%]
CC(C)=CCC/C(C)=C/CC/C(C)=C/CC/C(C)=C/CO	104
CCCCCCCC/C=C\CCCCCCCCCCCC(=O)O	89.1
COc1cc(C=O)cc(OC)c1O	89.3
Oc1cc(O)c2c(c1)O[C@H](c1ccc(O)c(O)c1)[C@H](O)[C@H]2c1c(O)cc(O)c2c1O[C@H](c1ccc(O)c(O)c1)[C@H](O)C2	88.1
CCCCCC/C=C/CCCCCCCC(=O)O	92.9
O=c1c(-c2ccc(O)cc2)coc2c([C@@H]3O[C@H](CO)[C@@H](O)[C@H](O)[C@H]3O)c(O)ccc12	86.5
CCCCCc1ccco1	97.1
COc1cc(CCC(O)CC(O)CCc2ccc(O)c(OC)c2)ccc1O (stereo not shown)	103

Mixed results
Compound	target	effect on	tested at	measurement	result
CS(=O)(=O)NCC[C@H](NC(=O)c1cncc2c1cnn2-c1ccc(F)cc1)c1ccnc(S(C)(=O)=O)c1	5-hydroxytryptamine receptor 5A (HTR5A, Homo sapiens, UniProt P47898)	ligand displacement	10 µM	inhibition	-14.4%

A few entries again (sample 2):
target	fold over basal
P2Y purinoceptor 1 (P2RY1, Homo sapiens, UniProt P47900)	0.67
Neuromedin-K receptor (TACR3, Homo sapiens, UniProt P29371)	1.27 fold
